Measured values from different studies.
Protocols differ between the studies behind these lines. “And” joins repeats or separate records; there may be more than shown. Numbers after ± are the reported error.
GLP1R: Glucagon-like peptide 1 receptor (GLP1R, Homo sapiens, UniProt P43220)
UniProt O14980, sequence (whole entry, looked up): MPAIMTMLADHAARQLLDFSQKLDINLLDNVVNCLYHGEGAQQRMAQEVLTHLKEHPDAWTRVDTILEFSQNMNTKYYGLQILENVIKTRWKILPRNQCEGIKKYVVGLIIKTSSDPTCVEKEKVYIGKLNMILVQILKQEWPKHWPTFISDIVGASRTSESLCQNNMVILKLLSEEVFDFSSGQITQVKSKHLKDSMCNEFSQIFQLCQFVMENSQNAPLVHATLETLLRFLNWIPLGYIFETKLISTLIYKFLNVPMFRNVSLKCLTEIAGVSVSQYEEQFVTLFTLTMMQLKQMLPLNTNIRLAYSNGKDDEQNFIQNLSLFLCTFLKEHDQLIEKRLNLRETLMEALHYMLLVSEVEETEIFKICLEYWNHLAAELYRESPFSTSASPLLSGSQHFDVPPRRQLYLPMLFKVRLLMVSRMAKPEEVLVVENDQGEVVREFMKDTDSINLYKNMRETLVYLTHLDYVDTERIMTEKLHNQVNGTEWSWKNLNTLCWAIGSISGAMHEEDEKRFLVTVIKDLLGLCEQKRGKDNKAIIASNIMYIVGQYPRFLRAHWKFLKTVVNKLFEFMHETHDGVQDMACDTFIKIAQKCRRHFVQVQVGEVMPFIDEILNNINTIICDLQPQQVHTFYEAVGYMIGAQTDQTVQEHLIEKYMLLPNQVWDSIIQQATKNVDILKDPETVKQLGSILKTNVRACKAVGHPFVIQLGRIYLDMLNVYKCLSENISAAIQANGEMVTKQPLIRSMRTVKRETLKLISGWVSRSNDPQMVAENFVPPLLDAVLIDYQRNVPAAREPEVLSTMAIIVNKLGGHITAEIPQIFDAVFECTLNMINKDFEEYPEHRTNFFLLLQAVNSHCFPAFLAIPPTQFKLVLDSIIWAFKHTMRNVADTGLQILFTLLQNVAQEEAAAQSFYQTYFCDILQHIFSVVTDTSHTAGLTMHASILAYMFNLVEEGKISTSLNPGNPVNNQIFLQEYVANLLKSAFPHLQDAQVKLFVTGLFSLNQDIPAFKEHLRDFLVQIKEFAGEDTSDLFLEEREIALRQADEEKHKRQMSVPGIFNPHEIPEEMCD
UniProt O14626, sequence (whole entry, looked up): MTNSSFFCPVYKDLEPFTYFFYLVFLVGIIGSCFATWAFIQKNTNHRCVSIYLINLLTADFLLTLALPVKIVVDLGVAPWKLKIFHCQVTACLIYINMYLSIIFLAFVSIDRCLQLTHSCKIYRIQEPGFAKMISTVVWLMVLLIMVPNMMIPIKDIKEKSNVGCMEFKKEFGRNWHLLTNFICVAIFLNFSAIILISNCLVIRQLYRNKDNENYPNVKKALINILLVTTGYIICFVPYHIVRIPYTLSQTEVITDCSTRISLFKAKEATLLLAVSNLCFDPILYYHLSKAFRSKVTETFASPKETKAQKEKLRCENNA

| SMILES | target or system | assay | system | setting | scale | endpoint | result |
| --- | --- | --- | --- | --- | --- | --- | --- |
| [Cl-].[Cl-].[Pt+2].[Ru+2].c1ccc(-c2nc3ccccc3nc2-c2ccccn2)nc1.c1cnc2c(c1)ccc1cccnc12.c1cnc2c(c1)ccc1cccnc12 | Danio rerio | – | embryos | 90 µM, 48 h | – | survival rate | 50 ± 2.6% |
| OC(CCN1CC=C(c2ccc(F)cc2)CC1)c1ccc(F)c2ccccc12 (stereo not shown) | Salmonella typhimurium | SOS/umu test | TA1535/pSK1002 | 0.031 mg/mL, 4 h, without S9, lower range | – | survival | 27.7% |
| CN1CC[C@@H](c2c(O)cc(O)c3c(=O)cc(-c4ccc(C(F)(F)F)cc4Cl)oc23)[C@@H]1CO | – | measured: Anemia | relapsed or refractory haematological malignancies | oral, dose not given, all grades | – | adverse event incidence | 22.5% and 22% |
| O=[N+]([O-])c1ccc(N2CCN(CCC(O)c3ccc(F)cc3)CC2)c(C(F)(F)F)c1 (stereo not shown) | Salmonella typhimurium | SOS/umu test | TA1535/pSK1002 | 0.063 mg/mL, 4 h, without S9, full range | – | survival | 35.8% |
| [Cl-].[Cl-].[Pt+2].[Ru+2].c1ccc(-c2nc3cc4ccccc4cc3nc2-c2ccccn2)nc1.c1cnc2c(c1)ccc1cccnc12.c1cnc2c(c1)ccc1cccnc12 | Danio rerio | – | embryos | 30 µM, 0 h | – | survival rate | 100% |
| C[C@H]1CN(c2n[nH]c3nc(N[C@H]4CC[C@H](NS(=O)(=O)CCC(F)(F)F)CC4)ncc23)CCO1 | Exportin-1 (XPO1, Homo sapiens, UniProt O14980) | inhibitor, Kinobeads competition profiling | – | 20 µM | reference: vehicle | relative abundance | 1.16 |
| O=[N+]([O-])c1ccc(N2CCC(NCCC(O)c3ccc(F)c4ccccc34)CC2)c(C(F)(F)F)c1 (stereo not shown) | Salmonella typhimurium | SOS/umu test | TA1535/pSK1002 | 0.001 mg/mL, 4 h, without S9, lower range | – | survival | 108% |
| Nc1nc2c(ncn2COCCO)c(=O)[nH]1 | Herpes simplex virus 2 | – | Vero, compound-resistant | – | reference: CC50 over IC50 | therapeutic index | 3.92 |
| CN(N=O)c1ccc(F)cc1 | Salmonella typhimurium | mutagenicity, Ames plate incorporation | TA98 | 1500 µg/plate, 3 d, without S9, methanol | – | revertant colonies per plate | 23 ± 5 |
| COc1cccc(-c2n[nH]c(SCc3ccccn3)n2)c1OC | Escherichia coli | Ames test, preincubation | WP2 uvrA | 0.25 mg/plate, with rat liver S9 | – | revertant colonies per plate | 24 |
| O=C(O)C[C@H](NC(=O)[C@H](CC(=O)O)NC(=O)[C@H](CC(=O)O)NC(=O)[C@H](CC(=O)O)NC(=O)[C@H](CC(=O)O)NC(=O)[C@H](CC(=O)O)NC(=O)[C@H](CC(=O)O)NC(=O)[C@H](CC(=O)O)NC(=O)[C@H](CC(=O)O)NC(=O)[C@H](CC(=O)O)NC(=O)[C@H](CC(=O)O)NC(=O)[C@H](CCCCNC(=O)c1ccc(C(=O)NCCOCCOB2BBBBBB3BBBB3B2)cc1)NC(=O)CN1CCN(CC(=O)O)CCN(CC(=O)O)CCN(CC(=O)O)CC1)C(=O)O [gallium-67 labelled] | – | – | ddY male mice, small intestine | intravenous, 37 kBq, 1 h | – | tissue uptake | 0.45 %ID/g |
| [Cl-].[Cl-].[Pt+2].[Ru+2].c1ccc(-c2nccnc2-c2ccccn2)nc1.c1cnc2c(c1)ccc1cccnc12.c1cnc2c(c1)ccc1cccnc12 | Danio rerio | – | embryos | 60 µM, 48 h | – | survival rate | 60 ± 3.1% |
| Oc1ccc2c3c1O[C@H]1[C@@H](O)CC[C@@]4(O)[C@@H](C2)N(CC2CCC2)CC[C@]314 | G-protein coupled receptor 171 (GPR171, Homo sapiens, UniProt O14626) | β-arrestin recruitment, TANGO luminescence, measured: GPR171 | – | concentration not given | reference: basal luminescence | log2 fold change | 0.327 |
| Cc1cc(C(=O)NC(C)(C)COc2cccc3c2C(N)=NS(=O)(=O)N3)cc(C)n1 | Salmonella typhimurium | Ames test, initial | TA1537 | 500 µg/plate, together with: rat liver S9 | reference: solvent control | revertant ratio | 0.8 |
| CCCC[C@H](NC(=O)C1CN(C)C1)c1ncc(-c2cc3ccccc3nc2OC)[nH]1 | Salmonella enterica serovar Typhimurium | – | TA1535, TA98, TA100 | without S9, toxicity-limited | – | highest non-mutagenic dose | 100 to 300 µg/plate |
| CC[C@H](C)[C@H](NC(=O)[C@H](Cc1ccccc1)NC(=O)[C@H](CCC(=O)O)NC(=O)[C@H](CCCNC(=N)N)NC(=O)[C@H](C)NC(=O)[C@H](C)NC(=O)[C@H](CCC(N)=O)NC(=O)[C@H](CCC(=O)O)NC(=O)[C@H](CCC(=O)O)NC(=O)[C@H](CC(C)C)NC(=O)[C@H](Cc1ccc(O)cc1)NC(=O)[C@H](CO)NC(=O)[C@H](CO)NC(=O)[C@@H](NC(=O)[C@H](CC(=O)O)NC(=O)[C@H](CO)NC(=O)[C@@H](NC(=O)[C@H](Cc1ccccc1)NC(=O)[C@@H](NC(=O)CNC(=O)[C@H](CCC(=O)O)NC(=O)[C@H](C)NC(=O)CCc1cnc[nH]1)[C@@H](C)O)[C@@H](C)O)C(C)C)C(=O)N[C@@H](C)C(=O)N[C@@H](Cc1c[nH]c2ccccc12)C(=O)N[C@@H](CC(C)C)C(=O)N[C@H](C(=O)N[C@@H](CCCNC(=N)N)C(=O)NCC(=O)N[C@@H](CCCNC(=N)N)C(=O)N[C@@H](CCCCNC(=O)COCCOCCNC(=O)COCCOCCNC(=O)CC[C@H](NC(=O)CCCCCCCCCCCCCCCCC(=O)O)C(=O)O)C(=O)NCC(=O)NCC(=O)N[C@@H](CO)C(=O)N[C@@H](CCCCNc1c(NCCCCCN(O)C(=O)CCC(=O)NCCCCCN(O)C(=O)CCC(=O)NCCCCCN(O)C(C)=O)c(=O)c1=O)C(=O)N[C@@H](CCCCNc1c(NCCCCCN(O)C(=O)CCC(=O)NCCCCCN(O)C(=O)CCC(=O)NCCCCCN(O)C(C)=O)c(=O)c1=O)C(=O)O)C(C)C | GLP1R | cAMP reporter gene, agonist, CRE luciferase | BHK | without Zr, 1% HSA | – | EC50 | 170 pM |
| CC(=O)N1CCC(C(=O)N2CCN3C(=O)c4cc(-c5ccccc5)ccc4NC(=O)C3C2)CC1 (stereo not shown) | Salmonella typhimurium | – | TA98 | 50 µg/plate | – | revertants per plate | 25.5 |
| CC[C@H](C)[C@H](NC(=O)[C@H](Cc1ccccc1)NC(=O)[C@H](CCC(=O)O)NC(=O)[C@H](CCCNC(=N)N)NC(=O)[C@H](C)NC(=O)[C@H](C)NC(=O)[C@H](CCC(N)=O)NC(=O)[C@H](CCCCNc1c(NCCCCCN(O)C(=O)CCC(=O)NCCCCCN(O)C(=O)CCC(=O)NCCCCCN(O)C(C)=O)c(=O)c1=O)NC(=O)[C@H](CCC(=O)O)NC(=O)[C@H](CC(C)C)NC(=O)[C@H](Cc1ccc(O)cc1)NC(=O)[C@H](CO)NC(=O)[C@H](CO)NC(=O)[C@H](CCCCNc1c(NCCCCCN(O)C(=O)CCC(=O)NCCCCCN(O)C(=O)CCC(=O)NCCCCCN(O)C(C)=O)c(=O)c1=O)NC(=O)[C@H](CC(=O)O)NC(=O)[C@H](CO)NC(=O)[C@@H](NC(=O)[C@H](Cc1ccccc1)NC(=O)[C@@H](NC(=O)CNC(=O)[C@H](CCC(=O)O)NC(=O)[C@H](C)NC(=O)CCc1cnc[nH]1)[C@@H](C)O)[C@@H](C)O)C(=O)N[C@@H](C)C(=O)N[C@@H](Cc1c[nH]c2ccccc12)C(=O)N[C@@H](CC(C)C)C(=O)N[C@H](C(=O)N[C@@H](CCCNC(=N)N)C(=O)NCC(=O)N[C@@H](CCCNC(=N)N)C(=O)N[C@@H](CCCCNC(=O)COCCOCCNC(=O)COCCOCCNC(=O)CC[C@H](NC(=O)CCCCCCCCCCCCCCCCC(=O)O)C(=O)O)C(=O)O)C(C)C | GLP1R | cAMP reporter gene, agonist, CRE luciferase | BHK | without Zr, 0% HSA | – | EC50 | 75 pM |
| COc1ccc(C[C@H](NC(=O)[C@H](C)NC(=O)CN2CCOCC2)C(=O)N[C@@H](Cc2ccccc2)C(=O)C2(C)CO2)cc1 (stereo in doubt) | Plasmodium falciparum | – | NF54, artemisinin-sensitive | – | reference: HEK-293T CC50 over IC50 | selectivity ratio | > 14400 |

Some of these lines once more:
| SMILES | target or system | assay | system | setting | scale | endpoint | result |
| --- | --- | --- | --- | --- | --- | --- | --- |
| O=C(O)C[C@H](NC(=O)[C@H](CC(=O)O)NC(=O)[C@H](CC(=O)O)NC(=O)[C@H](CC(=O)O)NC(=O)[C@H](CC(=O)O)NC(=O)[C@H](CC(=O)O)NC(=O)[C@H](CC(=O)O)NC(=O)[C@H](CC(=O)O)NC(=O)[C@H](CC(=O)O)NC(=O)[C@H](CC(=O)O)NC(=O)[C@H](CC(=O)O)NC(=O)[C@H](CCCCNC(=O)c1ccc(C(=O)NCCOCCOB2BBBBBB3BBBB3B2)cc1)NC(=O)CN1CCN(CC(=O)O)CCN(CC(=O)O)CCN(CC(=O)O)CC1)C(=O)O [gallium-67 labelled] | – | – | ddY male mice, small intestine | intravenous, 37 kBq, 1 h | – | tissue uptake | 0.45 %ID/g |
| CC[C@H](C)[C@H](NC(=O)[C@H](Cc1ccccc1)NC(=O)[C@H](CCC(=O)O)NC(=O)[C@H](CCCNC(=N)N)NC(=O)[C@H](C)NC(=O)[C@H](C)NC(=O)[C@H](CCC(N)=O)NC(=O)[C@H](CCCCNc1c(NCCCCCN(O)C(=O)CCC(=O)NCCCCCN(O)C(=O)CCC(=O)NCCCCCN(O)C(C)=O)c(=O)c1=O)NC(=O)[C@H](CCC(=O)O)NC(=O)[C@H](CC(C)C)NC(=O)[C@H](Cc1ccc(O)cc1)NC(=O)[C@H](CO)NC(=O)[C@H](CO)NC(=O)[C@H](CCCCNc1c(NCCCCCN(O)C(=O)CCC(=O)NCCCCCN(O)C(=O)CCC(=O)NCCCCCN(O)C(C)=O)c(=O)c1=O)NC(=O)[C@H](CC(=O)O)NC(=O)[C@H](CO)NC(=O)[C@@H](NC(=O)[C@H](Cc1ccccc1)NC(=O)[C@@H](NC(=O)CNC(=O)[C@H](CCC(=O)O)NC(=O)[C@H](C)NC(=O)CCc1cnc[nH]1)[C@@H](C)O)[C@@H](C)O)C(=O)N[C@@H](C)C(=O)N[C@@H](Cc1c[nH]c2ccccc12)C(=O)N[C@@H](CC(C)C)C(=O)N[C@H](C(=O)N[C@@H](CCCNC(=N)N)C(=O)NCC(=O)N[C@@H](CCCNC(=N)N)C(=O)N[C@@H](CCCCNC(=O)COCCOCCNC(=O)COCCOCCNC(=O)CC[C@H](NC(=O)CCCCCCCCCCCCCCCCC(=O)O)C(=O)O)C(=O)O)C(C)C | GLP1R | cAMP reporter gene, agonist, CRE luciferase | BHK | without Zr, 0% HSA | – | EC50 | 75 pM |
